Measured values of several laboratories.
Each numbered part is a random draw from the data of one study; scales do not carry over between parts. Positions count from the first letter of the parent shown.

Block 1 — technique: protein binding microarray; form: double-stranded DNA, one strand shown; sample: in vitro; concentration: not given; reference: not given; direction: higher = stronger binding; measurement: E-score
Target: Histone acetyltransferase KAT6A, winged helix 2, GST fusion (KAT6A, Homo sapiens, UniProt Q92794, residues 85-181)
Notes: 8-mer, flanks averaged, mean of 2 arrays, mostly near background
Target sequence (chain): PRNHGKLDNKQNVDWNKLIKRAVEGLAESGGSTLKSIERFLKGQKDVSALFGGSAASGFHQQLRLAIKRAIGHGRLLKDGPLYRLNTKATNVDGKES
GTATCTGA: -0.104
CAGCTGCA: -0.118
CATATCCA: -0.11
AACCCGGC: 0.251
AGGGGGAT: -0.171
AAGTGTAA: -0.333
ACGTGTCA: -0.16
CCTCTGTC: -0.0222
GGGCAACA: 0.1
ACCGAGGT: 0.0193
ATCTGAGC: -0.00838
CATCCGTA: 0.0139
CTCGCGTA: -0.0236
TCCTGGAA: 0.00796
CGGGTACA: -0.092
CTAATTAA: 0.0561
AATTAATT: 0.15
ATGATCGC: -0.0982
CGTAATCA: 0.106
TCATAGCA: 0.0357
GTCCGAGA: 0.186
CGATTCAC: -0.12
CGGCGTCC: 0.278
CATTAAGG: -0.0575
ATTCGCGC: 0.115

Block 2 — technique: RNA Bind-n-Seq; form: RNA; sample: in vitro; concentration: 365 nM; reference: no-protein control; direction: higher = stronger binding; measurement: RBNS enrichment (R)
Target: RNA binding protein fox-1 homolog 2, RRM domain, GST-SBP tag (RBFOX2, Homo sapiens, UniProt O43251-10, residues 100-194)
Notes: natural RNA segment, single round, ends assumed
Constant ends, left off below: GGGAGUUCUACAGUCCGACGAUC … UGGAAUUCUCGGGUGCCAA
Residues (chain): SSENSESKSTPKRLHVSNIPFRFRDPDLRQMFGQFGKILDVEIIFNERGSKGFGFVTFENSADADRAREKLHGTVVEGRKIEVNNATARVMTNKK
UCCUAGAACCACUGAGUUUCUAGUUUAAUAGUUUGCUAUGCAAAUGACCACCUAAAACAAUACUUUAUAUUGUUAUUUUUAGAAAGACUCAAAACACCUGUAUUUAAACC: 0.409
CUGGCUUAUCUCUCCACCCCAAACCUCCUUCCUGUCUGGUCCCCAGCCUGGGGGGGUUCUGAGCAGUGCCUCUUGUCUUGGAGACAGACCUGGUGCCUGGCGCUGCCUUC: 0.487
AGCUCACAGCACACCGACUCCGGAGAGAUGGAAGUGGAUAAGUGUCAUGUUAUCCAAGCAGUGGGUUAACUAAAGGGCCCAUUCAUCCUUUAUGCCCGGUACACACAACA: 0.583
UGGAAACAAACCCAUGAAUGAAGAAGAAACUCUUAAAAUGGUUCUGUCUGCACUGAUUCAAAGAGGAUUUGUGGGAAAGAAAACUAAAGGCAUGGGUUUCGUCCAAAAAU: 1.09
CCCAGUGUCAUCAACAGUGAGCAAAUCUGGCAUGGUGUUUGUCUCGUACAGUUGGGAUAGGAGGCCAUUCAUUCCCAUGGGCACAGCUAACAUUAUCCCCCAGUGAUUAC: 10.4
GCUUGGGGCCCCAGCCUUAACUUCUCGACAGUUCCGUGAGGAUGACUUCCGGAGAGUUGUGGACUUUAUAGAUGAAGGGGUCAACAUUGGCUUAGAGGUGAAGAGCAAGA: 0.413
GGCACCAGGCACUUGACCUUGGGGGGUCUACAAGCAAGAUGAGUUCUGAUAGGCACAGUCCAGCCCAGUCUAGCACCACCUUUUAUGGUAGUUGAUCACUCUGAGGAGGU: 0.484
UGAUUUAAACUCUGGAGUCAAAGCUAGUGUGUGUGUCUGUCUUUGCUCCUGCUAAGACAUGGAAACAAGUAUUGGAACCUCCAGAGUGUUUAAAUGGCUAUUGAAAUUUA: 0.325
UCCACCCCUGGCCUCUUCCGUAUUUGCUGUUAUCUGCUCCCUCUUUCCUGAGGGGCCUCAGGGCAUUGGAGGGGGCCGACACCCCUCCACUAAAGAUUGAGUGAGGUCUC: 0.295
UUCUGGAACUUGCUGUAUAGUCCAGGCUGGCCUCAAACUCAGAGAUCCACCUGCCUCUGCCCCCUGAUGCUGCCACCAUACCCAGCUGGUUUUAUCUUUUAAUGAUAACU: 0.252
UGAUCCCCCUCUCCCAUUUAUUCCCUUGAAGGUGCCCUUGUAUUCCUAAUCUGAUCUAAGAAGCUGCUGUAGAGUCAGAAGUAGCUUCUGUGUGAAACUUAUAUUUGUAU: 2.04
CAUUUUCCAGGGGGUUUAUGGUCAGGGCUCCCCAACCUGAGUUGGGCUACUUCCAAGGGCAGCCAGCAGGCCUGGACAGAGGUCUUGAAAGCCCUUGUCUUCUCUUCCCC: 0.409

Block 3 — technique: protein-binding microarray; form: double-stranded DNA, one strand shown; sample: in vitro; concentration: not given; direction: higher = stronger binding; measurement: E-score
Target: Hepatocyte nuclear factor 3-beta, forkhead domain (FOXA2, Homo sapiens, UniProt Q9Y261, residues 142-269)
Notes: k-mer, scored over probes, only values ≥0.25
Construct (chain): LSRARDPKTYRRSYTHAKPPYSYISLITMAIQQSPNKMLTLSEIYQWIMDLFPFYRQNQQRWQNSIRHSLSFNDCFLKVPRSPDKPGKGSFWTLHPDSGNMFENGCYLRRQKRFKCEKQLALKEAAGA
TACAGGTA: 0.256
AATACCTA: 0.314
ATATTTGC: 0.369
AACTTAGA: 0.32
ACACACAC: 0.363
AATAGCGT: 0.253
ATCATATA: 0.335
CAAATACG: 0.294
ATAATTAA: 0.3
ACGGATAC: 0.259
TAGTATGA: 0.342
GAGATACA: 0.264
ATGATATG: 0.292
ATATGTTG: 0.347
ACAATCAC: 0.273
CATAGCAA: 0.297
ATATAATC: 0.259
GACACACA: 0.325
CAAACATG: 0.315
CTAGTACA: 0.253
TGTTACAA: 0.307
TATCCATA: 0.305
AACAATAC: 0.343
TGGATACA: 0.258

Block 4 — target: ATF2, bZIP domain (human); technique: DHFR protein complementation; sample: yeast; reference: wild-type JUN-FOS pair; direction: higher = stronger binding; measurement: binding fitness
Notes: single substitutions, most at no-binding floor
Starting sequence: JUN, bZIP domain (human); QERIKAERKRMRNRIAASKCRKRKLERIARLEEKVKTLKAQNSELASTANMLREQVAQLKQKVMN; partner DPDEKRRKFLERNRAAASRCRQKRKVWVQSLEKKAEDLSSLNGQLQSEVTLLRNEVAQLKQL
I28E: -1.37 natural log
Q41A: -1.4 natural log
T37R: -1.29 natural log
A57V: -1.5 natural log
E54V: -1.41 natural log
A40K: -1.12 natural log
L45C: -1.39 natural log
T37L: -1.26 natural log
S43F: -1.41 natural log
Q41N: -1.46 natural log
A40C: -1.34 natural log
M51E: -1.42 natural log
A49W: -1.38 natural log
E54T: -1.32 natural log
I28G: -1.45 natural log
L45H: -1.56 natural log
T37M: -0.994 natural log
S47Q: -1.33 natural log
E32Y: -1.44 natural log
A29S: -1.33 natural log
E54M: -1.52 natural log
A29H: -1.22 natural log
N42Y: -1.49 natural log
S47Y: -1.42 natural log

Block 5 — technique: RNA Bind-n-Seq; form: RNA; sample: in vitro; concentration: not given; notes: RNA with constant flanks, ends assumed; reference: input RNA pool; direction: higher = stronger binding; measurement: bound/input enrichment
Target: RING finger protein unkempt homolog, zinc fingers 1-6, GST-SBP tag (UNK, Homo sapiens, UniProt Q9C0B0, residues 30-357)
Chain of UniProt Q9C0B0 (30-357, looked up): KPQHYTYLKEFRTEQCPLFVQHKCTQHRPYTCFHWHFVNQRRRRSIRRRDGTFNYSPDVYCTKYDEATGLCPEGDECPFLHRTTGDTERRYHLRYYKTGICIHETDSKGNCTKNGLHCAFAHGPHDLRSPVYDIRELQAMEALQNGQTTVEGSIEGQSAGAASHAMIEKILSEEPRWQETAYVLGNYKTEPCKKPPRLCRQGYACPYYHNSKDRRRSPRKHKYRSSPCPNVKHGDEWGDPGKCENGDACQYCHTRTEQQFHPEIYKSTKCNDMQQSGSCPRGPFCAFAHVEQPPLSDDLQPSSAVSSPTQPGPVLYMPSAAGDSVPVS
Constant ends, left off below: GGGAGUUCUACAGUCCGACGAUC … CAACAGAGGAUUGAGCAUCA
GCACUUCUCAAAUACUGGCCAAAGACUCACAGUCCAAAAGAAGUAAUGUUCUUAAAUGAAUCCGAAGAAAUUUUAGAUGUAAUUGAACCAUCAGAGUUUGUGAAGAUCAUGGAGCCUCUU: 0.286 ratio
GUCAACCGUGUUACCAUACUGUGUGACAAAUUUAGUGGCCAUCCCAAAGGGUUUGCGUAUACCGAGUUCUCAGACAAAGAGUCAGUGAGGACUUCCUUGGCCUUAGAUGAGUCCCUAUUU: 0.42 ratio
GGCCUCUCGCUGGUGCCCGUGAUCUUUGUUCUGUAUCGUUGGGGGGAGGUGAGAUCAGUCAACCGGGGUGUUGCUGUUUCCCAUCCCUGCCCCCCCCCCCCAAUUGUUAAUUUUAAGCUG: 0.18 ratio
CUCAUUCUUUCCUUGGCGUGUCUGAGUGUCCUCUGUCCUCUGGUUAUCCGUGCCUUGGUCCUCCGGGAAGAGAGCUGUGGUAGGGUAUGAAGAUGGUACCAUCAGGAUCUGGGACCUCAA: 0.174 ratio
AUGGCUUCAGAAGAGCUACAGAAAGAUCUAGAAGAGGUAAAGGUGUUGCUGGAAAAGGCUACCCGGAAAAGAGUACGUGAUGCCCUUACAGCUGAAAAAUCCAAGAUUGAGACAGAAAUC: 0.26 ratio
AAUGAAACUGCAGAAAAAACCCUGGGAGUCCUGGCAGAUGAAGACAACACAUUGCAACAAAACCGCAGCAGCAGAAAUACCAGCUACAGCAGUGCAGUGCAAAAAGAAAUCACACUGCCU: 0.17 ratio
GUCAAGGCCAAAACACUAAGAAAGCUGAUCCAGCAAACAUUCAGGCAGUUUGCCAACCUUAACCGAGAAGAAAGCAUCCUGAAAUUCUUUGAGAUUCUUUCUCCUGUGUACAGAUUUGAC: 0.469 ratio
CAGUUUGACACUAAGAUAAUGAACUUCUGUGUGCAUUUUUCUAUGCUUUAUUUUUUAAUGCCGCUUACUUCCUGAGAUUUUGGCUUUGUUUAUACAAUCUGAGGGUGGUUAUAAAUACUG: 0.162 ratio
GGCAAAGUACAACAGCUACCAAAAUAUACAUCUCAAAUUGUGGGUAGAUUCAUUAAGCCUCUCCGCAAUGCAUACCACGAGUUAGCACAAGUGUAUUCAACCAACAACCCCUCAGAACUC: 0.3 ratio
CAGGUGGCAGAGGAGCUGGGGCAUCGCCCACCGCUGUAGCCAGCUGCAUAGUUUAAGCCGCUCCGCACAGCAGAAUUUGGAAACACUUAAAAAAGCAAAAGGGUGUACAAUCAUAUUUAC: 0.254 ratio
GCUAUGCAGGCUUUGACUCUUCUAGGAGCAUGUGUAUCAAACUGUGGCAAAAUUUUUCAUUCCGAAGUAUGUUCAAGAGAUUUUGCUAGUGAAGUAAGCAACGUAUUAAAUAAGGGUCAU: 0.56 ratio

For quick reference, copied from above (block 1):
CAGCTGCA: -0.118
CATATCCA: -0.11
AACCCGGC: 0.251
AGGGGGAT: -0.171
AAGTGTAA: -0.333
